Results collected from several papers.
Each line is one published result; not all experiments were run side by side. ± marks the error that the study gave.
Cell line: PC-3

Compound | assay | setting | IC50
CC(=O)O[C@@H]1CC[C@@]2(C)[C@@H](CC[C@]3(C)[C@@H]2C(=O)C=C2[C@@H]4[C@@H](C)[C@H](C)CC[C@]4(C)CC[C@]23C)[C@@]1(C)C(=O)O | cell growth or viability, MTT | 48 h | 27.9 µM
CN1CCC2(CC1)C/C(=N\NC(=O)Nc1ccc([N+](=O)[O-])cc1)c1ccccc1O2 | cell growth or viability, MTT | 48 h | 19.2 µM
O=C1NN=C(c2ccccc2)/C1=N/Nc1ccc(F)cc1 | cell growth or viability, MTT |  | 96.8 µM
CCN1CCC2(CC1)C/C(=N\NC(=O)Nc1ccc([N+](=O)[O-])cc1)c1ccccc1O2 | cell growth or viability, MTT | 48 h | 11.3 µM
CCN(CC)CCN1C(=O)c2ccc3c4cccc5c(NCCN)ccc(c6ccc(c2c36)C1=O)c54 | cell growth or viability, SRB | 72 h | 7 µM
O=C(/C=C/c1ccc2c(c1)C(=O)N(CCCc1ccccc1)CC2)NO | cell growth, SRB | 72 h | 1.94 ± 0.24 µM
CC(=O)O[C@@H]1CC[C@@]2(C)[C@@H](CC[C@]3(C)[C@@H]2C(=O)C=C2[C@@H]4[C@@H](C)[C@H](C)CC[C@]4(C)CC[C@]23C)[C@@]1(C)C(=O)NCCNC(=O)CCBr | cell growth or viability, MTT | 48 h | > 30 µM
N=C(N)NCCC[C@@H]1NC(=O)[C@H](CCCCN)NC(=O)[C@@H](Cc2ccc(O)cc2)NC(=O)[C@H](CC(=O)O)NC(=O)CNC1=O | cytotoxicity, MTT | 48 h | > 100 µM
N=C(N)Nc1nc2ccccc2s1 | cell growth or viability, MTT | 24 h | 446 µM
CC(=O)O[C@@H]1CC[C@@]2(C)[C@@H](CC[C@]3(C)[C@@H]2C(=O)C=C2[C@@H]4[C@@H](C)[C@H](C)CC[C@]4(C)CC[C@]23C)[C@@]1(C)C(=O)NCCNC(=O)CC[P+](c1ccccc1)(c1ccccc1)c1ccccc1 | cell growth or viability, MTT | 48 h | 22.2 µM
CC(=O)[O][Pt]([Cl])([Cl])[O]C(C)=O.N.N | cell growth or viability |  | 10.1 µM
C=CCc1ccc(OCc2nnc(SCC(=O)Nc3cccc(Cl)c3)o2)c(OC)c1 | cell growth or viability, MTT | 72 h | 17 µM
C=CC(OC(C)=O)c1ccc(OC(C)=O)c(OC)c1 (centres unmarked) | cell growth or viability, MTT | 24 h | 13.8 µM
CC(=O)O[C@@H]1CC[C@@]2(C)[C@@H](CC[C@]3(C)[C@@H]2C(=O)C=C2[C@@H]4[C@@H](C)[C@H](C)CC[C@]4(C)CC[C@]23C)[C@@]1(C)C(=O)NCCNC(=O)C1CCCCC1 | cell growth or viability, MTT | 48 h | 14.3 µM
CC(C)=CCC1=C([O-])C(=O)c2ccccc2C1=O.CC(C)=CCC1=C([O-])C(=O)c2ccccc2C1=O.[Cu+2].c1ccc(-c2ccccn2)nc1 | cell viability, MTT | 24 h | 34.1 ± 0.6 µM
CCN1CCC2(CC1)C/C(=N\N=C\c1ccc(O)cc1)c1ccccc1O2 | cell growth or viability, MTT | 48 h | 22.2 µM
C=CCc1ccc(OCc2nnc(SCC(=O)Nc3cccc(Br)c3)o2)c(OC)c1 | cell growth or viability, MTT | 72 h | 51.1 µM
C=CC(OC(C)=O)c1ccccc1 (centres unmarked) | MTT | 24 h | > 50 µM
COc1ccc(-c2c(C#N)c(N)n(-c3nnc(NC(=O)c4ccccc4)s3)c(=O)c2C#N)cc1 | cell growth or viability, MTT | 48 h | 35.8 µM
C[C@H]1[C@H](C)CC[C@]2(C)CC[C@]3(C)C(=CC(=O)[C@@H]4[C@@]5(C)CC[C@@H](O)[C@](C)(C(=O)NCCNC(=O)c6ccccc6)[C@@H]5CC[C@]43C)[C@H]12 | cell growth or viability, MTT | 48 h | 14.3 µM
C=C1C(=O)OC2CC3=C[C@@H](C/C(C)=C/C(OC(=O)Cc4cccc5ccccc45)[C@H]12)OC3=O (some centres unmarked) | cell growth or viability, MTT | 24 h | 5.5 µM
COc1cc(C2Oc3ccc(C=C4Oc5cc(O)ccc5C4=O)cc3OC2CO)cc(OC)c1O (centres unmarked) | cell growth or viability, MTT | 72 h | 76.4 µM

Compound | assay | setting | IC50
O=C(Cc1ccccc1)NC(=S)n1c(-c2ccccc2)nc2ccccc21 | cell growth or viability, MTT | 48 h | 25.4 µM
CCCC(CCC)C(=O)[O][Pt]([Cl])([Cl])[O]C(C)=O.N.N | cell growth or viability |  | 7.32 µM
CC(C)=CCC1=C([O-])C(=O)c2ccccc2C1=O.CC(C)=CCC1=C([O-])C(=O)c2ccccc2C1=O.[Cu+2].c1ccc(-c2ccnc3c2ccc2c(-c4ccccc4)ccnc23)cc1 | cell viability, MTT | 24 h | 1.2 ± 0.1 µM
C[C@]1([N+](=O)[O-])C(=O)c2ccccc2O[C@@H]1CC(=O)O | cell growth or viability, SRB | 96 h | > 50 µM
Cc1nn(-c2ccc(S(=O)(=O)N[C@@H](CO)CC(C)C)cc2)c2nn3nnnc3nc12 | cell growth or viability, MTT | 72 h | 0.3 µM
Cc1ccc(-c2noc(-c3cccs3)c2C(F)(F)F)cc1 | cell growth or viability, MTT | 48 h | 28.7 µM
CN(C)CCO/N=C1/C=C2CCC3C(CC[C@]4(C)/C(=C/c5ccccn5)CCC34)[C@@]2(C)CC1 (some centres unmarked) | cell growth or viability, MTT | 72 h | 69.5 µM
CCN(CC)CCN1C(=O)c2ccc3c4cccc5c(N6CCNCC6)ccc(c6ccc(c2c36)C1=O)c54 | cell growth or viability, SRB | 72 h | 4 µM
C[C@]1([N+](=O)[O-])C(=O)c2ccccc2O[C@@H]1CC(=O)Oc1ccccc1 | cell growth or viability, SRB | 96 h | > 50 µM
CCCCn1cc(C(=O)O)c(=O)c2cc(F)c(Nc3ccc(OC)cc3)c(N)c21 | cell growth or viability, SRB | 72 h | 5.25 µg/mL
C[C@]12CC/C(=N\OCCN3CCCC3)C=C1CCC1C2CC[C@]2(C)/C(=C/c3ccccn3)CCC12 (some centres unmarked) | cell growth or viability, MTT | 72 h | 77.1 µM
CC(=O)[O][Pt]1([O]C(C)=O)[O]C(=O)C(=O)[O]1.NC1CCCCC1N | cell growth or viability |  | 15.8 µM
CC(=O)O[C@@H]1CC[C@@]2(C)[C@@H](CC[C@]3(C)[C@@H]2C(=O)C=C2[C@@H]4[C@@H](C)[C@H](C)CC[C@]4(C)CC[C@]23C)[C@@]1(C)C(=O)NCCNC(=O)CCCCCCCCCC[P+](c1ccccc1)(c1ccccc1)c1ccccc1 | cell growth or viability, MTT | 48 h | 2.45 µM
O=C(O)c1ccc([P+]([Au-][Cl])(c2ccccc2)c2ccccc2)cc1 | cell viability, XTT | 24 h | > 200 µM
CCCCOC(=O)C[C@H]1Oc2ccccc2C(=O)[C@]1(C)[N+](=O)[O-] | cell growth or viability, SRB | 96 h | > 50 µM
COC(=O)CNC(=O)COc1ccc2c(C)cc(=O)oc2c1 | cell growth or viability, MTT |  | 106 µM
C=C(CO)C(=O)O[C@H]1CC(=C)[C@@H]2C[C@H](O)[C@](O)(CCl)[C@@H]2[C@H]2OC(=O)C(=C)C12 (some centres unmarked) | cell growth or viability |  | 5.3 µg/mL
Cc1ccc(C(=O)NCCNC(=O)[C@@]2(C)[C@H](O)CC[C@@]3(C)[C@H]2CC[C@]2(C)[C@@H]3C(=O)C=C3[C@@H]4[C@@H](C)[C@H](C)CC[C@]4(C)CC[C@]32C)cc1 | cell growth or viability, MTT | 48 h | 14 µM
CN1CCCC1CCO/N=C1/C=C2CCC3C(CC[C@]4(C)/C(=C/c5ccccn5)CCC34)[C@@]2(C)CC1 (some centres unmarked) | cell growth or viability, MTT | 72 h | > 100 µM
COC(=O)CNC(=O)CNC(=O)CNC(=O)COc1ccc2c(C)cc(=O)oc2c1 | cell growth or viability, MTT |  | 115 µM
CC(=O)O[C@@H]1CC[C@@]2(C)[C@@H](CC[C@]3(C)[C@@H]2C(=O)C=C2[C@@H]4[C@@H](C)[C@H](C)CC[C@]4(C)CC[C@]23C)[C@@]1(C)C(=O)NCCNC(=O)CCCCBr | cell growth or viability, MTT | 48 h | 10.5 µM
[Cl][Pd-2]1([Cl])[N+](=Cc2ccc[nH]2)Cc2cccc[n+]21 | cell growth or viability, MTT | 24 h | 20.9 µg/mL
